Published values gathered from unrelated publications.
Each numbered part is a random draw from the data of one study; scales do not carry over between parts. Substitutions count along the parent as printed.

Block 1 — method: protein-binding microarray; form: double-stranded DNA, one strand shown; medium: in vitro; concentration: 250 nM; setting: 60-bp whole probe; together with: salmon DNA 0.4 mg/ml; reference: random background probes; direction: higher = stronger binding; measurement: log fluorescence; all sequences stand within: GCCTAGCAC … GTCTTGATTCGCTTGACGCTGCTG
Target: Interferon regulatory factor 5, full length, phosphomimetic (IRF5, Homo sapiens, UniProt Q13568-2, residues 1-514, K96S/S451D/S453D/S456D/S462D)
Sequence = TTAGGTTTCCTTCTCCTTTAGTGCTAG; value = 1.26 z-score
Sequence = GACGAACTGGCGTATCGAGACGTGCTA; value = 0.279 z-score
Sequence = TTCAGTTTTCCTATGTCATTGTGCTAG; value = 1.48 z-score
Sequence = TGAGCTACAGATGAGGCTCGGTGCTAG; value = -0.568 z-score
Sequence = ACCGTTGTAGTTTTCATTATGTGCTAG; value = 1.82 z-score
Sequence = GACGGTATCCTCCTCCTGACGTGCTAG; value = -0.205 z-score
Sequence = TCAGGTTTCGGTTTCGGTTAGTGCTAG; value = 11.5 z-score
Sequence = TTAGATATCAGTGTCGATTAGTGCTAG; value = 1.51 z-score
Sequence = TTAGGTCTCCTTTTCCTTTCGTGCTAG; value = 1.39 z-score
Sequence = TTAGAACTGGGGACTGGAATAGTGCTA; value = -0.517 z-score
Sequence = CTCATTCTCTGCTTGCGTCTGTGCTAG; value = 0.384 z-score
Sequence = TCAGATTTCAGTTTTCTACTGTGCTAG; value = 2.05 z-score
Sequence = TCTTTTATTTTTTTTATTTAGTGCTAG; value = 1.57 z-score
Sequence = GACGATATCGGGTTTTGAGACGTGCTA; value = 1.66 z-score
Sequence = TCCTGTTTGATAATTTTTTTGTGCTAG; value = 0.849 z-score
Sequence = GACGATTTCGGGTTTCGGGACGTGCTA; value = 4.96 z-score
Sequence = TTAGTACTGAGACTGGATTAGTGCTAG; value = -0.028 z-score
Sequence = TTAGATTTCAGCTCCGATTAGTGCTAG; value = 0.648 z-score
Sequence = TTTCCTTTATGTCCTGTCTAGTGCTAG; value = 3.38 z-score
Sequence = TTAGCTTTCAGTCTCGATTAGTGCTAG; value = 6.55 z-score
Sequence = GACGGTTTCGTTCTCCTGACGTGCTAG; value = 6.22 z-score
Sequence = GACGATCTCAGACTGGCGACGTGCTAG; value = -0.192 z-score
Sequence = TTAGATTTCGACTTTCGGTTAGTGCTA; value = 10.3 z-score
Sequence = TCAAGACTTTCTTTCAAACTGTGCTAG; value = 2.3 z-score
Sequence = GACGGACTGCTTATCCGGACGTGCTAG; value = -0.414 z-score

Block 2 — method: universal PBM; form: double-stranded DNA, one strand shown; medium: in vitro; concentration: 600 nM; direction: higher = stronger binding; measurement: E-score
Target: Sal-like protein 4, full length isoform A (SALL4, Homo sapiens, UniProt Q9UJQ4, residues 1-1053)
UniProt Q9UJQ4, sequence (whole entry, looked up): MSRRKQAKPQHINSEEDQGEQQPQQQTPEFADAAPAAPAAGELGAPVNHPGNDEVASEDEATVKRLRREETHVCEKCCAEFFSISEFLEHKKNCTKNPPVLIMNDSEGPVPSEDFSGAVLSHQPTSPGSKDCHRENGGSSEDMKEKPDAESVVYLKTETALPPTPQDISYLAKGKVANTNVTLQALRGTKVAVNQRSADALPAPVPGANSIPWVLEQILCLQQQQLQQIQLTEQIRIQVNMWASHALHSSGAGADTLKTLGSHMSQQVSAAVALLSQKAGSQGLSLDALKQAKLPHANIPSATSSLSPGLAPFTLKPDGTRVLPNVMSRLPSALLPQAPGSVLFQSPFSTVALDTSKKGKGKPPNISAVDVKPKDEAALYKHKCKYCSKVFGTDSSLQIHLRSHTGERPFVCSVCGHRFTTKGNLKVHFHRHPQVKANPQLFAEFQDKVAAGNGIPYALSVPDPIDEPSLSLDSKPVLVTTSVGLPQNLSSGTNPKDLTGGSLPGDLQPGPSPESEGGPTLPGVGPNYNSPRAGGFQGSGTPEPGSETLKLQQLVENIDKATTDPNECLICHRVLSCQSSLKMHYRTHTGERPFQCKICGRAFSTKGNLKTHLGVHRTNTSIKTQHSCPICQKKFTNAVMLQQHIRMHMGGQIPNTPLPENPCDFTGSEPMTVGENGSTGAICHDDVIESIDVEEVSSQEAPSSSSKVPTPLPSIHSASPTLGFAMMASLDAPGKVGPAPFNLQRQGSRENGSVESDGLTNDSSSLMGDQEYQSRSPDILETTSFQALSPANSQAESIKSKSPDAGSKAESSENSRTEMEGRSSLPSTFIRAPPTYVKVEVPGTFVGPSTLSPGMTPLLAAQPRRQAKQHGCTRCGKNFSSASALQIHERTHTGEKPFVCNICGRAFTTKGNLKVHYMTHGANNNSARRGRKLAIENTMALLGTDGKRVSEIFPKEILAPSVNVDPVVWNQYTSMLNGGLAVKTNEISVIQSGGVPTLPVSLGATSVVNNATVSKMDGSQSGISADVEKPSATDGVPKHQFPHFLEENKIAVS
Setting: 8-mer, flanks averaged, mean of replicates
Sequence = CTGGGTAC; value = -0.273
Sequence = AAATGTGT; value = 0.285
Sequence = ACCATCCA; value = -0.0831
Sequence = AGTTAGCA; value = 0.127
Sequence = GCACACAC; value = -0.181
Sequence = AGATTTTA; value = 0.254
Sequence = AGCCAGCG; value = -0.264
Sequence = CGGACGTA; value = -0.116
Sequence = CCTGTCGA; value = -0.11
Sequence = GAAACATA; value = 0.247
Sequence = GTGGCGGA; value = -0.291
Sequence = GAGAGTAA; value = 0.112
Sequence = CTTGTCAC; value = -0.0445
Sequence = ATTTATTA; value = 0.444
Sequence = AGAAGAAC; value = 0.00445
Sequence = AGAGCCTG; value = -0.166
Sequence = ATCGTGTG; value = 0.138
Sequence = TCCACACA; value = -0.0284

Block 3 — method: protein binding microarray; form: double-stranded DNA, one strand shown; medium: in vitro; concentration: not given; reference: not given; direction: higher = stronger binding; measurement: E-score
Target: Histone acetyltransferase KAT6A, winged helix 2, GST fusion (KAT6A, Homo sapiens, UniProt Q92794, residues 85-181)
Setting: 8-mer, flanks averaged, mean of 2 arrays, mostly near background
Construct (chain): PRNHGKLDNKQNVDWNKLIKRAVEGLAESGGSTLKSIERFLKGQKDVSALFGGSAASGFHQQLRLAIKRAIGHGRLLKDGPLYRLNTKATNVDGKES
Sequence = GGAGGCTA; value = -0.0119
Sequence = ACCAGCCA; value = 0.0346
Sequence = ATTAAGAA; value = 0.0657
Sequence = CCCAAGGG; value = -0.0348
Sequence = CGGGAGTA; value = 0.0409
Sequence = ACCAAACG; value = 0.00941
Sequence = CCATCAGC; value = -0.086
Sequence = TGCACACA; value = -0.106
Sequence = ACTACGGC; value = 0.00696
Sequence = GCAGGAAA; value = 0.0509
Sequence = ATTCAGAC; value = 0.0367
Sequence = AACGCACC; value = -0.0729
Sequence = AATGGGAA; value = -0.0849
Sequence = AACCACAG; value = -0.119
Sequence = GCATCTCA; value = -0.0121
Sequence = ATAAAAAT; value = 0.107
Sequence = CTATACGA; value = -0.11

Block 4 — target: CCNF, cyclin fold, Cln2 fusion (human); method: yeast growth competition, sequencing; medium: yeast; setting: strong parent motif; reference: not given; direction: higher = stronger binding; measurement: normalised enrichment score
Parent: RBL1 docking peptide (human); GSAKRRLFGEDPP
Change = A3W; value = 4.76
Change = P12V; value = 6.71
Change = G9L; value = 9.45
Change = R5N; value = 0.915
Change = A3T; value = 7.24
Change = K4V; value = 7.72
Change = G9D; value = 7.77
Change = A3N; value = -0.0231
Change = A3K; value = 1.97
Change = P13F; value = 6.97
Change = G9Y; value = 8.87
Change = R6K; value = 7.91
Change = D11Q; value = 7.74
Change = R5L; value = 0.513

Block 5 — method: aptamer microarray, sandwich; form: DNA with 2'F-ANA; medium: in vitro; concentration: 200 nM; together with: Cy3 exosite-II aptamer, 400 nM; direction: higher = stronger binding; measurement: mean fluorescence intensity; sequence: GGTTGGTGTGGTTGG
Target: Prothrombin, mature alpha-thrombin (F2, Homo sapiens, UniProt P00734)
Setting: whole 15-mer aptamer, many near background
Modification = 2'F-ANA at 4 5 6 7 8 10 11 12 13 14 15; value = 48.5 a.u.
Modification = 2'F-ANA at 3 4 5 6 8 10 11; value = 51.5 a.u.
Modification = 2'F-ANA at 2 3 4 6 7 10 11 12 14; value = 159 a.u.
Modification = 2'F-ANA at 1 2 4 5 7 8 10 11; value = 159 a.u.
Modification = 2'F-ANA at 2 3 5 6 7 12 13 15; value = 130 a.u.
Modification = 2'F-ANA at 1 4 6 11 14; value = 49.4 a.u.
Modification = 2'F-ANA at 12 13 15; value = 785 a.u.
Modification = 2'F-ANA at 1 2 4 5 6 11 15; value = 48.5 a.u.
Modification = 2'F-ANA at 1 12 13 14 15; value = 72.7 a.u.
Modification = 2'F-ANA at 5 10 12; value = 51 a.u.
Modification = 2'F-ANA at 1 2 6 7 9 10 11 15; value = 54.4 a.u.
Modification = 2'F-ANA at 2 3 4 5 7 14 15; value = 53 a.u.
Modification = 2'F-ANA at 2 6 8 10 11 15; value = 115 a.u.
Modification = 2'F-ANA at 1 2 3 7 8 9 12 13 14; value = 91.9 a.u.
Modification = 2'F-ANA at 4 5 6 7 8 9 11 12 15; value = 105 a.u.
Modification = 2'F-ANA at 1 2 5 6 7 8 11 12 14 15; value = 52.9 a.u.
Modification = 2'F-ANA at 1 3 4 5 8 9 11 13 15; value = 48.8 a.u.
Modification = 2'F-ANA at 2 4 5 6 7 8 11 13 15; value = 50.4 a.u.

Block 6 — method: RNA Bind-n-Seq; form: RNA; medium: in vitro; concentration: 365 nM; reference: no-protein control; direction: higher = stronger binding; measurement: RBNS enrichment (R)
Target: RNA binding protein fox-1 homolog 2, RRM domain, GST-SBP tag (RBFOX2, Homo sapiens, UniProt O43251-10, residues 100-194)
Setting: natural RNA segment, single round, ends assumed
All sequences stand within: GGGAGUUCUACAGUCCGACGAUC … UGGAAUUCUCGGGUGCCAA
Construct (chain): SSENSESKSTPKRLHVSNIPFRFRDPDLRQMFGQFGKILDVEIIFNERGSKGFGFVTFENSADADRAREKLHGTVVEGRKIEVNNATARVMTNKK
Sequence = AUUAACUAUUGGUAUACUACUGGUUUUAUAUUUUUUUUUCUUUGAGACAACAGUACAUAUAAUAGAGGUACAAUUCGUUGGAUUUUUGUUUAUGUAUUUAUUUCAUUCCA; value = 0.656
Sequence = AGAUUCAAUCGUAACUGUGUCAACAGUAUUGUGAAGUGAUCAUUUCUUGUAAAACUUGUAAAUAAACUAUCAUCUUUGUAGAUAUCUUAAAGGUGUAAAGUUUGCAAAUU; value = 0.295
Sequence = UUAUGGGUCUUAUAGGGGAUAAAAUGCUCUUCUUCCAUGCGACACUUCCUUUCCCAUGAACACUUGCAGUUGCUAAGGGACUUUAUUUUGUAACAUAUUAAUUAUAAAUA; value = 0.477
Sequence = AUAAAAUGAUUACCUCUGGUGUUGACAGGUUGAACUUGCACUCUUAAGGAACAGCCAUAACCCUCCGAAUGAUUGCAUUAAUUUCUGACCGCCCUCAGCCCGUUGGAAGC; value = 0.795
Sequence = CUUUGUUCUGGGUCCUUUCGGGAGGGCUGAUGGGCAGCACAGGAGGCCCGUCCUCGGGGGGCUGCGCACAUCACGCUCCUUGCCGGGCGUCCGGCACAGCUGCGGUCACC; value = 0.224
Sequence = CAGGCGAGGACCCUGAAUCAUUUGGAGCCCAGAAGGAGGCAGACUGGCCAGGUCUCACCACCUCAGUGUGCAGUUCAACUCCAUGCCAUCCCAUCAAGAUGGGUUAGUAG; value = 0.193
Sequence = GUGACUGGAUAGCAGUUUUAAGUGGCGUUCACCUAGUCAACACGACCGCGUGUGUUGCCCCUGCCCUGGGCUCCCCGCCAUGACAUCUUCACCUUGCAGCUUGUGCUGAG; value = 0.32
Sequence = GAGAAAAAGAUACUGUUGAUAAUCCUGUCAGCUCCUUAGGCACUUCGGAGGCUGAGGCAGGAGAAUCAAAAAUUCAAGGCCACUUAGCAAGACCCCAUGUCAAAAUUAUA; value = 0.574
Sequence = CUUUUCUUUGGACAAUUCACUUUAGAGUCUUUAAACGGGUCUCUCGUGGGGAGGAUAGAUGUGCUCUGGAACUUUCUGAAGGACCAGCAGCUUCAGGGACUCUUAGUCUG; value = 0.315
Sequence = GUGAGCUUUUCACAUUACCUUAUGUAUACAACAGGAGCUGCGUUGUUUUCUUCUUUUUCUUUUCCUUAUCUGUUGUCCAACAACAGUGCUGACUGUCCGGAUAAGAGCUG; value = 0.362
Sequence = GCCAGAAUUAAAUUAUGUAUUAAACUCUUGUCUCCAUUUAACACCUUUGCAGUGAAAAACUUUUUGCUUCAUAUAGUUAAUUAUAUUCAUAUUGAAUGUAUUAACAGAUA; value = 0.691
Sequence = GGAUACUCAAUCUGGCCUUAAAAAGAUACACAAAGAUGGGCUGUGGGUCCCUGGAAAGGGGGAGAGUUGCCCUUUACAGAAUCACUCGAGCCCUUUCCAGCACUGUUGGU; value = 0.373

Block 7 — method: protein-binding microarray; form: double-stranded DNA, one strand shown; medium: in vitro; concentration: not given; direction: higher = stronger binding; measurement: E-score
Target: Max-binding protein MNT, bHLH-zipper, MAX partner unstated (MNT, Homo sapiens, UniProt Q99583, residues 220-300)
Setting: k-mer, scored over probes, only values ≥0.25
Construct (chain): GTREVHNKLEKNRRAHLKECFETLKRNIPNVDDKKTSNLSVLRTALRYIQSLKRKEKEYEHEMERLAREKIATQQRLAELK
Sequence = AGACATGC; value = 0.378
Sequence = AGGTGGCG; value = 0.335
Sequence = ACATGCAC; value = 0.39
Sequence = ACTCATGC; value = 0.278
Sequence = CCCCATGA; value = 0.251
Sequence = AGCCCCAA; value = 0.256
Sequence = ACGTGGTG; value = 0.437
Sequence = CGCATGAC; value = 0.384
Sequence = ACATGGCC; value = 0.33
Sequence = CACGTCAC; value = 0.267
Sequence = ATGGGGCG; value = 0.285

Some of these lines once more (block 2):
Sequence = AGATTTTA; value = 0.254
Sequence = CTGGGTAC; value = -0.273
Sequence = ACCATCCA; value = -0.0831
Sequence = CCTGTCGA; value = -0.11
Sequence = GTGGCGGA; value = -0.291
Sequence = AGCCAGCG; value = -0.264
Sequence = CTTGTCAC; value = -0.0445
Sequence = AGAAGAAC; value = 0.00445
Sequence = GAGAGTAA; value = 0.112
Sequence = AAATGTGT; value = 0.285
Sequence = AGTTAGCA; value = 0.127
Sequence = TCCACACA; value = -0.0284
Sequence = CGGACGTA; value = -0.116
Sequence = GAAACATA; value = 0.247
Sequence = AGAGCCTG; value = -0.166
Sequence = ATTTATTA; value = 0.444
Sequence = ATCGTGTG; value = 0.138
Sequence = GCACACAC; value = -0.181
